Experimental data from different studies.
Each numbered part is a random draw from the data of one study; scales do not carry over between parts.

Series 1
Target: Ras GTPase-activating protein-binding protein 1, RRM domain (G3BP1, Homo sapiens, UniProt Q13283)
Sequence of UniProt Q13283 (whole entry, looked up): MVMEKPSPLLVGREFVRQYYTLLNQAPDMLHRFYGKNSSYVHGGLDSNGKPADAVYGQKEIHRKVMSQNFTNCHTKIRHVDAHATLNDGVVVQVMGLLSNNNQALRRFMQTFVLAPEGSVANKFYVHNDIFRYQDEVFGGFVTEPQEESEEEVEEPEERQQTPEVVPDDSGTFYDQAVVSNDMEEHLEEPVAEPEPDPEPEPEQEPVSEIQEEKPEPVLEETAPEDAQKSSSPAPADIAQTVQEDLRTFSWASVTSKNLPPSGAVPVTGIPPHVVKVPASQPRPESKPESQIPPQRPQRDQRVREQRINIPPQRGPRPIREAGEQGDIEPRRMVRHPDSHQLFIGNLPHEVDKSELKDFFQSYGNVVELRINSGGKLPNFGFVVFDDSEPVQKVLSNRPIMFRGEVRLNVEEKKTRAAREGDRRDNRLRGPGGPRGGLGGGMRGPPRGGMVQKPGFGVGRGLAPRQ
Technique: RNA Bind-n-Seq
Form: RNA
Matrix: in vitro
Tested at: 1 µM
Notes: whole 134-nt RNA, ends assumed
Added: 150 mM KCl
Relative to: input library
Direction: higher = stronger binding
Constant ends, left off below: GGGAGUUCUACAGUCCGACGAUC … UGGAAUUCUCGGGUGUCAAGG
Sequence | log2 enrichment
AGUCCUGUGCUACACAUCGUAUGUACCGAAUCGGUUUGGAAAAAAAGGUUUUUUUGGAAAGUAUUAUGUUACGCCGUUCGGAUCUGCACU | -0.226
UAACUUUAGAGGAGGAUCUGAUGGAUGUGGCAGUGGACGUGGAUUUGGGGAUGGCUAUAAUGGGUAUGGAGGAGGACCUGGAGGUGGCAA | -0.942
CCUGUGCUACACAUCGUAUGUACCGAAUCGGGGUUUUUUUGGGGUUUGGGGUUUUUGGGGAAAGUAUUAUGUUACGCCGUUCGGAUCUGC | 0.581
AGUCCUGUGCUACACAUCGUAUGUACCGAAUCGGGGAAAAAGGGGUGGGGAAAGGGGAAAGUAUUAUGUUACGCCGUUCGGAUCUGCACU | 0.924
CAAGUCCUGUGCUACACAUCGUAUGUACCGAAUCGGAAAAAGGAAAAAGGAAAGGAAAGUAUUAUGUUACGCCGUUCGGAUCUGCACUUC | -0.084
GUCCUGUGCUACACAUCGUAUGUACCGAAUCGGGGCCCCCGGCCCCCGGGGCCCCCGGGAAAGUAUUAUGUUACGCCGUUCGGAUCUGCA | -0.808
UAACUUUAGAGGAGGAUCUGAUGGAUAUGGCAGUAGACGUGGAUUUGGGGAUGGCUAUAAUGGGUAUGGAGGAGGACCUGGAGGUGGCAA | -0.922
UGGCCCUGGUGGCAUGCGGGGAGGGAGAGGUGGCCUCAUGGAUCGUGGUGGUCCCGGUGGAAUGUUCAGAGGUGGCCGUGGUGGAGACAG | 0.886
CUCAAGUCCUGUGCUACACAUCGUAUGUACCGAAUCGGGAGGGAAAGGGAGGGAAAGUAUUAUGUUACGCCGUUCGGAUCUGCACUUCCA | 0.738

Series 2
Target: PABPC1L2, full length, GST fusion (mouse, UniProt A0ABA7IW68)
Technique: RNAcompete
Form: RNA
Matrix: in vitro
Tested at: 20 nM
Notes: 7-mer, probes averaged, single round
Relative to: mean of 7-mers
Direction: higher = stronger binding
Residues (chain): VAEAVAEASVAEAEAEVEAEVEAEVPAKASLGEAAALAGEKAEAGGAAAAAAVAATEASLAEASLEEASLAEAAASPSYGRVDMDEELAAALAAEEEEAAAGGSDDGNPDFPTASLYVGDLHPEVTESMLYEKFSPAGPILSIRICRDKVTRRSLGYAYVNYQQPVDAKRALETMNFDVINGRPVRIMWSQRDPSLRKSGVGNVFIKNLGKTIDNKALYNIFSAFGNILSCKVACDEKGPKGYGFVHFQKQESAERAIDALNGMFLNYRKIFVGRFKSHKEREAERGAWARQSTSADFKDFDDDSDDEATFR
Sequence | 7-mer Z-score
CCGUAUU | -0.329
GGGAGGC | 0.312
CCCGGCG | -0.206
GUGACUG | -0.0464
ACGUCGG | -0.0754
CGCCGGA | -0.161
AUAAGGU | 0.0261
UGGUUAU | -0.226
UGAACCA | -0.0881
AACCUCG | -0.15
GGAAGCU | -0.157
CCCUCCA | -0.311
UGGAUUC | -0.17
CGCUUAC | -0.364
CCUUUAC | -0.079
UACGCUA | -0.139
UUCAAGA | -0.13
AUUAGAG | 0.102
GGGAGGU | 0.26
GUCUCUA | -0.327

Series 3
Target: Histone acetyltransferase KAT6A, winged helix 2, GST fusion (KAT6A, Homo sapiens, UniProt Q92794, residues 85-181)
Technique: protein binding microarray
Form: double-stranded DNA, one strand shown
Matrix: in vitro
Tested at: not given
Notes: 8-mer, flanks averaged, mean of 2 arrays, mostly near background
Relative to: not given
Direction: higher = stronger binding
Target sequence (chain): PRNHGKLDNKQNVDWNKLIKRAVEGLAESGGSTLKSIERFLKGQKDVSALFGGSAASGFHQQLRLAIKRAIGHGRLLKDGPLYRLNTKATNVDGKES
Sequence | E-score
GTTCTTAA | 0.119
ACGGCAAT | -0.0432
ACCAGAAT | -0.00088
AGCGCACT | -0.0315
GAACTTAC | 0.0923
CAAATTAA | 0.0332
CGCAGCTC | 0.048
AGGCACGC | 0.0935
CCGCGGTC | 0.215
ACTACACC | -0.0435
ACCTTCCC | -0.0646
GTATTCTA | 0.06
AGAAGTCT | -0.222
CAAAAATA | -0.00402
ACGTGCAA | -0.176
CCGAAATC | 0.135
ACCATCGA | -0.0673
CCCGGACA | 0.0197

Series 4
Target: Prothrombin, mature alpha-thrombin (F2, Homo sapiens, UniProt P00734)
Technique: aptamer microarray, sandwich
Form: DNA with 2'F-ANA
Matrix: in vitro
Tested at: 200 nM
Notes: whole 15-mer aptamer, many near background
Added: Cy3 exosite-II aptamer, 400 nM
Direction: higher = stronger binding
Sequence: GGTTGGTGTGGTTGG
Modification | mean fluorescence intensity [a.u.]
2'F-ANA at 1 4 5 7 8 9 11 12 13 15 | 68.1
2'F-ANA at 1 2 3 4 5 7 8 9 11 12 13 | 73.7
2'F-ANA at 1 2 4 7 8 9 11 12 14 | 57.4
2'F-ANA at 3 10 12 | 711
2'F-ANA at 2 6 8 9 11 | 363
2'F-ANA at 1 2 3 4 6 7 8 9 10 11 12 13 14 15 | 54.2
2'F-ANA at 1 2 8 9 10 11 | 50.1
2'F-ANA at 1 2 8 12 15 | 419
2'F-ANA at 1 4 9 11 14 15 | 52.2
2'F-ANA at 1 4 5 6 10 11 | 57.3
2'F-ANA at 1 4 7 9 10 11 13 15 | 51.9
2'F-ANA at 3 4 5 6 7 8 9 10 12 13 | 53.9
2'F-ANA at 1 2 5 9 10 11 12 15 | 49.8
2'F-ANA at 2 4 5 6 10 | 107
2'F-ANA at 2 3 4 5 8 9 13 15 | 58.7
2'F-ANA at 1 2 5 6 13 | 48.6
2'F-ANA at 2 3 4 10 11 12 13 14 | 187
2'F-ANA at 6 8 12 13 14 15 | 209
2'F-ANA at 1 2 6 8 10 11 13 15 | 71.3
2'F-ANA at 1 2 4 6 7 8 11 12 14 | 64.4
2'F-ANA at 1 4 5 6 7 8 14 | 50.7
2'F-ANA at 1 2 4 6 9 10 11 12 13 14 15 | 51.4
2'F-ANA at 1 4 9 13 14 15 | 48.6

Series 5
Target: Phosphate system positive regulatory protein PHO4, full length, GST-tagged (PHO4, Saccharomyces cerevisiae, UniProt P07270, residues 1-312)
Technique: competition protein-binding microarray
Form: double-stranded DNA, one strand shown
Matrix: in vitro
Tested at: 2 µM
Notes: whole 60-bp probe, lowest competitor level
Added: Cbf1 competitor, 0.05 µM
Direction: higher = stronger binding
Constant ends, left off below: … GTCTTGATTCGCTTGACGCTGCTG
Target sequence (chain): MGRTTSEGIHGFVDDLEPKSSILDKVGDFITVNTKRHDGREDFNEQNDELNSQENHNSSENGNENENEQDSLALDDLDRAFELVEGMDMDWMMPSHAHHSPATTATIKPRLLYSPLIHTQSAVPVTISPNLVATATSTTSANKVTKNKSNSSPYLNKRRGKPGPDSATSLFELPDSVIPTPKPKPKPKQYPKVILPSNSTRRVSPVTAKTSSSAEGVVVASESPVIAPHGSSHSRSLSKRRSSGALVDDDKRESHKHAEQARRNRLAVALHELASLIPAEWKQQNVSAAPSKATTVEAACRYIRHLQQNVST
Sequence | fluorescence intensity
CGGGGTTAAGTTTGTCACCATACTTGCTTGCAGCAG | 3800 a.u.
GTCTTGTCTCATTGCTAAGTGGGTGTCCCCACTTCA | 4400 a.u.
GACCAGTGGCCCCGTCACAATATTCTCGGAAGCTAA | 2690 a.u.
CGGAAGACGTAGTGGCAGGTGAGGCGGCGAGTTCAG | 4290 a.u.
CCCTGATTAACTCACCACGTGCTTTCAAGGTCGTTA | 18000 a.u.
CAAAGAAGTAACCTCCACGTTAAGTGCTGAAATAAC | 6230 a.u.
GGTGCTGTTATTTGTCATGCCATTTGCTCTGGATTA | 5370 a.u.
CTAACGAAGGTTTGTGCCGTGGGTGACAAGCCAAGT | 4940 a.u.
GTCTTGTCTCATTGTGACGTGGGTGTCCCCACTTCA | 6750 a.u.
CAGCCGCTCGTCACCCGCGTGATGCTGTTTCTGGCG | 7210 a.u.
CTTCTGTAAATTTTTCACGTGGCTTGACGCGCCCCG | 12800 a.u.
ACATCTGTCTGGTTTGACGTGACAAATACCTTTCTT | 4090 a.u.
CATACCCAACCTTGTGCTGTGGGTGAAGATATTTGT | 7290 a.u.
GCTTCGATGTTTCCTCACGTTGTGATGTTACTTCAG | 9330 a.u.
CAATTCTTTTACCATCACGTCACCTAACCAACCATT | 5190 a.u.
AACTGCAGGGTCTGGCACGGCAACACAAGGCTATTG | 4960 a.u.
CTTTCCCGATCTTTTCACGTGGGTTTAGCACATTTG | 15800 a.u.
CTAACGAAGGTTTGATATGTGGGTGACAAGCCAAGT | 4220 a.u.
AAGACGCTGATTCACCACGTGAGACGAAGATTCAAA | 14900 a.u.

Excerpt of the above (series 1):
Sequence | log2 enrichment
CUCAAGUCCUGUGCUACACAUCGUAUGUACCGAAUCGGGAGGGAAAGGGAGGGAAAGUAUUAUGUUACGCCGUUCGGAUCUGCACUUCCA | 0.738
AGUCCUGUGCUACACAUCGUAUGUACCGAAUCGGUUUGGAAAAAAAGGUUUUUUUGGAAAGUAUUAUGUUACGCCGUUCGGAUCUGCACU | -0.226
UGGCCCUGGUGGCAUGCGGGGAGGGAGAGGUGGCCUCAUGGAUCGUGGUGGUCCCGGUGGAAUGUUCAGAGGUGGCCGUGGUGGAGACAG | 0.886
UAACUUUAGAGGAGGAUCUGAUGGAUGUGGCAGUGGACGUGGAUUUGGGGAUGGCUAUAAUGGGUAUGGAGGAGGACCUGGAGGUGGCAA | -0.942
UAACUUUAGAGGAGGAUCUGAUGGAUAUGGCAGUAGACGUGGAUUUGGGGAUGGCUAUAAUGGGUAUGGAGGAGGACCUGGAGGUGGCAA | -0.922
CCUGUGCUACACAUCGUAUGUACCGAAUCGGGGUUUUUUUGGGGUUUGGGGUUUUUGGGGAAAGUAUUAUGUUACGCCGUUCGGAUCUGC | 0.581
AGUCCUGUGCUACACAUCGUAUGUACCGAAUCGGGGAAAAAGGGGUGGGGAAAGGGGAAAGUAUUAUGUUACGCCGUUCGGAUCUGCACU | 0.924
GUCCUGUGCUACACAUCGUAUGUACCGAAUCGGGGCCCCCGGCCCCCGGGGCCCCCGGGAAAGUAUUAUGUUACGCCGUUCGGAUCUGCA | -0.808
CAAGUCCUGUGCUACACAUCGUAUGUACCGAAUCGGAAAAAGGAAAAAGGAAAGGAAAGUAUUAUGUUACGCCGUUCGGAUCUGCACUUC | -0.084
